Experimental data pooled from the literature.
Lines come from different studies, so protocols differ. Values joined by “and” are separate records of one study, mostly repeats; a detail may differ. ± marks the error that the study gave. ≈ marks a conversion by molar mass, not a printed value.

Structure (SMILES) | target or system | test | system | conditions | how to read | measurement | result
Clc1ccccc1C1(c2ccnc(-c3ccccc3)n2)CCNCC1 | Vero-E6 | CellTiter-Glo ATP | – | concentration not given, 72 h, first round 5-point | relative to: DMSO 0%, hyamine -100%, more negative, more toxic | cytotoxicity efficacy | 0%
C[C@@H]1CCN(C(=O)CC#N)C[C@@H]1N(C)c1ncnc2[nH]ccc12 | human coronavirus OC43 | virus-induced cell killing | MRC-5 | screen | – | maximum inhibition | 12.3%
C[C@H]1c2cccc(O)c2C(=O)C2=C(O)[C@]3(O)C(=O)C(C(N)=O)=C(O)[C@@H](N(C)C)[C@@H]3[C@@H](O)[C@@H]21 | Staphylococcus, coagulase-negative | – | – | – | – | MIC90 | 4 µg/mL (≈ 9 µM)
Cc1c2c(nn1C)CSCc1cc(n(C)n1)CSc1cc(c3ccccc3c1)OCCCc1c(C(=O)O)n(C)c3c-2c(Cl)ccc13 | Staphylococcus aureus | label-free proteomics, item: ald1 | SA113 | concentration not given | relative to: untreated | protein level fold change | 0.0616
CN1CC[C@@]2(C)c3cc(OC(=O)Nc4ccccc4)ccc3N(C)[C@@H]12 | Toxoplasma gondii | parasite growth | HFF, bradyzoite, glutamine-induced | – | – | EC90 | 32600 nM
CCCCCCCCCCC[C@@H](C[C@@H]1OC(=O)[C@H]1CCCCCC)OC(=O)[C@H](CC(C)C)NC=O | human coronavirus OC43 | virus-induced cell killing | MRC-5 | screen | – | maximum inhibition | 51.4%
Nc1nc2c(ncn2COCCO)c(=O)[nH]1 | human alphaherpesvirus 2 | viral replication, RT-qPCR | resistant to compound | – | – | IC50 | 74500 ± 4190 nM
CC(=O)NC[C@H]1CN(c2ccc(N3CCOCC3)c(F)c2)C(=O)O1 | Streptococcus pyogenes | – | – | – | – | MIC90 | 1 µg/mL (≈ 2.96 µM)
OC[C@H]1O[C@@H](n2ccc3c(SCc4ccc(F)cc4F)ncnc32)[C@H](O)[C@@H]1O | Toxoplasma gondii | [3H]uracil incorporation | human fibroblasts, RH wild type | 10 µM | – | survival | 17.9%
CN1CCN(C(=O)C(C)(C)c2ccc(C(=O)Nc3cn4cc(-c5ccncc5)ccc4n3)cc2)CC1 | mouse hepatitis virus | viral replication | nanoluciferase reporter | 1 µM | – | inhibition | -4%
C[C@@H]1C[C@@H]([C@H](O)CC2CC(=O)NC(=O)C2)C(=O)[C@@H](C)C1 | Mus musculus | gene silencing, high-content imaging | LDR reporter GFP cells | retest run 2 | – | AC50 | 5010 nM
O=[N+]([O-])c1cc2cc3ccc4oc([N+](=O)[O-])cc4c3cc2o1 | Salmonella enterica | REMA | – | – | – | MIC90 | < 0.25 µg/mL
CCCCCCCCCCCCCCCCCCO | hepatitis B virus | – | HepAD38 | 25 µM, 48 h | – | cccDNA level | no effect
COc1c([N+](=O)[O-])oc2ccc3ccccc3c12 | Salmonella enterica | REMA | – | – | – | MIC90 | 32 µg/mL (≈ 132 µM)
CC(C)(C#N)c1cc(Cn2cncn2)cc(C(C)(C)C#N)c1 | human coronavirus OC43 | virus-induced cell killing | MRC-5 | screen | – | maximum inhibition | 9.83%
CC(C)NC(=O)N1CC[C@@H](NC2=Nc3cc(F)ccc3N(CC(F)F)c3ccc(Cl)cc32)C1 | mouse hepatitis virus | viral replication | nanoluciferase reporter | 1 µM | – | inhibition | -32%
C=CC[C@@H]1c2ccc(OC)c(OC)c2CN2CCc3cc4c(cc3[C@H]12)OCO4 | Staphylococcus aureus | – | P2rx7 A312V/A312V mice, skin wound infection | dose not given, day 5 | relative to: day 0 | relative wound size | 0.98 and 0.89 and 0.66 and 0.82 and 0.86
OC[C@H]1O[C@@H](n2ccc3c(O)ncnc32)[C@H](O)[C@@H]1O | Toxoplasma gondii | [3H]uracil incorporation | human fibroblasts, adenosine kinase-deficient | 25 µM | – | parasite survival | 100%
CSc1cccc(Nc2ncc3cc(-c4c(Cl)cccc4Cl)c(=O)n(C)c3n2)c1 | human coronavirus OC43 | virus-induced cell killing | MRC-5 | screen | – | maximum inhibition | 47%
OC[C@H]1O[C@@H](n2ccc3c(SCc4ccc(Cl)c(Cl)c4)ncnc32)[C@H](O)[C@@H]1O | Toxoplasma gondii | [3H]uracil incorporation | human fibroblasts, RH wild type | 10 µM | – | survival | 51%
c1ccc2c(c1)[I+]c1ccccc1-2 | Toxoplasma gondii | – | TgMe49-Fluc, type II | tachyzoites | – | EC50 | 10 nM
Nc1ncnc2c1ncn2[C@@H]1O[C@@H]2COP(=O)(O)O[C@H]3[C@@H](O)[C@H](n4cnc5c(=O)[nH]cnc54)O[C@@H]3COP(=O)(O)O[C@H]2[C@H]1O | West Nile virus | RNA sequencing Reactome analysis, item: DNA Replication (R-HSA-69306) | HFF-1 | concentration not given, upregulated pathways, with: West Nile virus infection | relative to: WNV-infected without compound | fold enrichment | 2.7
Cn1cc(-c2ccc3occ(-c4ccccc4-c4ccccc4)c3n2)cn1 | mouse hepatitis virus | viral replication | nanoluciferase reporter | 1 µM | – | inhibition | 9%
Fc1ccc(C(OCCN2CCN(CCCc3ccccc3)CC2)c2ccc(F)cc2)cc1 | Toxoplasma gondii | parasite growth, luciferase reporter | HFF, tachyzoite | 72 h | – | EC50 | 9450 nM
C/C=C(/C)C(=O)O[C@H]1C(C)=C2[C@H]([C@@H]1OC(=O)CCCCCCC)[C@@](C)(OC(C)=O)C[C@H](OC(=O)CCC)[C@@]1(O)[C@H]2OC(=O)[C@@]1(C)O | human coronavirus OC43 | virus-induced cell killing | MRC-5 | screen | – | maximum inhibition | 13.6%

Structure (SMILES) | target or system | test | system | conditions | how to read | measurement | result
C[C@@H](N)[C@H]1CC[C@H](C(=O)Nc2ccncc2)CC1 | mouse hepatitis virus | viral replication | nanoluciferase reporter | 1 µM | – | inhibition | 11%
C/C(=C\c1csc(C)n1)[C@@H]1C[C@@H]2O[C@]2(C)CCC[C@H](C)[C@H](O)[C@@H](C)C(=O)C(C)(C)[C@@H](O)CC(=O)O1 | human coronavirus OC43 | virus-induced cell killing | MRC-5 | maximum over 10 doses | – | maximum inhibition | 0%
COc1ccc([C@@]23Oc4cc(OC)cc(OC)c4[C@@]24N=C(C)N[C@@]4(O)[C@H](C(=O)N(C)OC)[C@H]3c2ccccc2)cc1 | Hepatitis E virus | viral replication | HepG2 HEV-3 replicon, genotype 3 wild boar isolate | 24 h | – | EC50 | 1.49 nM
CC[C@H](C)[C@H](NC(=O)[C@H](C)NC(=O)[C@H](CCCCN)NC(=O)[C@H](CC(C)C)NC(=O)[C@H](C)NC(=O)[C@@H](NC(=O)[C@H](Cc1c[nH]cn1)NC(=O)[C@H](CC(C)C)NC(=O)[C@@H](NC(=O)[C@@H](NC(=O)[C@H](CCCCN)NC(=O)[C@H](C)NC(=O)[C@H](C)NC(=O)[C@H](CO)NC(=O)[C@H](CCCCN)NC(=O)[C@H](Cc1ccccc1)NC(=O)[C@@H](NC(=O)[C@H](CCCCN)NC(=O)[C@H](CC(C)C)NC(=O)[C@H](Cc1ccccc1)NC(=O)[C@H](CO)NC(=O)[C@H](CCCCN)NC(=O)[C@H](Cc1c[nH]c2ccccc12)NC(=O)[C@H](CCCCN)NC(C)=O)[C@@H](C)O)[C@@H](C)O)C(C)C)[C@@H](C)O)C(=O)N[C@@H](CO)C(=O)N[C@@H](CO)C(N)=O | Streptococcus pyogenes | – | ATCC 19615 | – | – | MIC range | 8 µg/mL (≈ 2.73 µM)
OC[C@H]1O[C@@H](n2ccc3c(SCc4ccc(Cl)cc4Cl)ncnc32)[C@H](O)[C@@H]1O | Toxoplasma gondii | [3H]uracil incorporation | human fibroblasts, RH wild type | 10 µM | – | survival | 51.7%
OB(O)c1csc2ccccc12 | Staphylococcus aureus | – | wild type, Galleria mellonella larvae | concentration not given | – | time of death | 24 h and 36 h and 6 h and 30 h and 12 h and 18 h
CCCCCCCCCCCc1c([N+](=O)[O-])oc2ccc3ccccc3c12 | Mycobacteroides abscessus | REMA | ATCC 19977 | – | – | MIC90 | > 32 µg/mL
CC1(C)SC2C(NC(=O)C(NC(=O)C3=C(O)C4(CC4)NC3=O)c3ccccc3)C(=O)N2C1C(=O)O (centres unmarked) | Escherichia coli | – | ΔtolC JW5503-1 | 200 µM, with: 30 µg/mL 2,2'-bipyridyl | – | zone of inhibition | 17.7 mm
CC(C)[C@H](NC(=O)[C@H](CCCNC(=N)N)NC(=O)[C@H](Cc1c[nH]c2ccccc12)NC(=O)[C@H](CCCNC(=N)N)NC(=O)[C@H](Cc1c[nH]c2ccccc12)NC(=O)[C@H](Cc1c[nH]c2ccccc12)NC(=O)[C@H](Cc1c[nH]c2ccccc12)NC(=O)[C@H](CCCNC(=N)N)NC(=O)[C@H](Cc1c[nH]c2ccccc12)NC(=O)[C@@H](N)CCCNC(=N)N)C(N)=O | Candida albicans | broth microdilution | 14936, RPMI 1640-MOPS | 48 h, 30 °C | – | MIC | 8 µM (≈ 13.4 µg/mL)
C[C@H]1CCC/C=C/[C@@H]2C[C@H](O)C[C@H]2[C@H](O)/C=C/C(=O)O1 | Toxoplasma gondii | parasite growth | HFF, bradyzoite, alkaline-induced | – | – | EC90 | 215 nM
CC(=O)NCC(=O)N1[C@@H]2CC[C@H]1c1ccc(Nc3ncc(C(F)(F)F)c(NC4CCC4)n3)cc12 | mouse hepatitis virus | viral replication | nanoluciferase reporter | 1 µM | – | inhibition | 58%
COC(=O)N[C@H](C(=O)N1CCC[C@H]1c1ncc(-c2ccc(-c3ccc(-c4cnc([C@@H]5CCCN5C(=O)[C@@H](NC(=O)OC)C(C)C)[nH]4)cc3)cc2)[nH]1)C(C)C | hepatitis C virus | HCV replicon | – | 50% effect level, with: IFN-α, ratio 1:1 | – | combination index | 0.72 and 0.73
CC(c1cc2ccccc2s1)N(O)C(N)=O (centres unmarked) | human coronavirus OC43 | virus-induced cell killing | MRC-5 | screen | – | maximum inhibition | 13.5%
CC[C@H](C)[C@H](NC(=O)[C@H](CCCNC(=N)N)NC(=O)[C@H](Cc1c[nH]c2ccccc12)NC(=O)[C@H](CCCNC(=N)N)NC(=O)[C@H](Cc1c[nH]c2ccccc12)NC(=O)[C@H](Cc1c[nH]c2ccccc12)NC(=O)[C@H](Cc1c[nH]c2ccccc12)NC(=O)[C@H](CCCNC(=N)N)NC(=O)[C@H](Cc1c[nH]c2ccccc12)NC(=O)[C@@H](N)CCCNC(=N)N)C(N)=O | Candida albicans | broth microdilution | 56452, RPMI 1640-MOPS | 48 h, 30 °C | – | MIC | 16 µM (≈ 27 µg/mL)
Nc1c([N+](=O)[O-])oc2ccc3ccccc3c12 | Salmonella enterica | REMA | – | – | – | MIC90 | 16 µg/mL (≈ 70.1 µM)
Cn1c(=O)ccc2ccc(F)c(CCNC[C@H]3CN(c4cnc5c(n4)NC(=O)CO5)C(=O)O3)c21 | Serratia marcescens | – | – | – | – | MIC50 | 0.25 µg/mL (≈ 0.534 µM)
CNC[C@H](O)[C@@H](O)[C@H](O)[C@H](O)CO.[O]=[Sb](=[O])[OH] | Leishmania major | – | BALB/c mouse | topical, dose not given, 14 days, unit not given | relative to: PBS | lesion size difference | 6.36
COC(=O)[C@@H]1[C@@H](c2ccccc2)[C@]2(c3ccc(OC)cc3)Oc3cc(OC)cc(OC)c3[C@@]23N=C(C)N[C@@]13O | Hepatitis E virus | viral replication | HepG2 HEV-3 replicon, genotype 3 | 48 h | – | EC50 | 2.28 nM
COc1ccc2c(ccc3oc([N+](=O)[O-])c(C)c32)c1 | Salmonella enterica | REMA | – | – | – | MIC90 | > 32 µg/mL
Cc1ccc(CSc2ncnc3c2ccn3[C@@H]2O[C@H](CO)[C@@H](O)[C@H]2O)cc1 | Toxoplasma gondii | [3H]uracil incorporation | human fibroblasts, RH wild type | 5 µM | – | survival | 80.1%
CN(C)C(=O)N1CC[C@H](N=C2Nc3cc(F)ccc3N(CC(F)F)c3ccc(Cl)cc32)C1 | mouse hepatitis virus | viral replication | nanoluciferase reporter | 1 µM | – | inhibition | 10%
CCc1c([N+](=O)[O-])oc2ccc3ccccc3c12 | Salmonella enterica | REMA | – | – | – | MIC90 | 1 µg/mL (≈ 4.15 µM)
CNCc1ccc(-c2[nH]c3cc(F)cc4c3c2CCNC4=O)cc1 | human coronavirus OC43 | virus-induced cell killing | MRC-5 | maximum over 10 doses | – | maximum inhibition | 0%
COc1ccc2c(ccc3oc([N+](=O)[O-])c(OC)c32)c1 | Mycobacteroides abscessus | REMA | ATCC 19977 | – | – | MIC90 | > 32 µg/mL
O=c1[nH]sc2cc(F)ccc12 | Mus musculus | gene silencing, high-content imaging | LDR reporter GFP cells | retest run 2 | – | maximal activity | 62%

A few entries again:
Structure (SMILES) | target or system | test | system | conditions | how to read | measurement | result
CN1CC[C@@]2(C)c3cc(OC(=O)Nc4ccccc4)ccc3N(C)[C@@H]12 | Toxoplasma gondii | parasite growth | HFF, bradyzoite, glutamine-induced | – | – | EC90 | 32600 nM
CC(C)NC(=O)N1CC[C@@H](NC2=Nc3cc(F)ccc3N(CC(F)F)c3ccc(Cl)cc32)C1 | mouse hepatitis virus | viral replication | nanoluciferase reporter | 1 µM | – | inhibition | -32%
C[C@@H]1C[C@@H]([C@H](O)CC2CC(=O)NC(=O)C2)C(=O)[C@@H](C)C1 | Mus musculus | gene silencing, high-content imaging | LDR reporter GFP cells | retest run 2 | – | AC50 | 5010 nM
O=c1[nH]sc2cc(F)ccc12 | Mus musculus | gene silencing, high-content imaging | LDR reporter GFP cells | retest run 2 | – | maximal activity | 62%
